# Experimental data from different studies.
# “And” joins repeats or separate records; there may be more than shown.
Compound,test,system,setting,AUC(0-tau)
O=C(O)CCC(=O)O.[2H]C([2H])([2H])Oc1cc(C)c2[nH]ccc2c1CN1CC[C@@H](C2CC2)C[C@H]1c1ccc(C(=O)O)cc1,,"human, plasma","300 mg once daily, day 1, multiple ascending dose, geometric mean",51900 ng·h/mL
Cl.[2H]C([2H])([2H])CC(=O)c1cnc(NC(=O)C2CC2)cc1Nc1cccc(-c2ncn(C([2H])([2H])[2H])n2)c1OC,geometric mean,human,"oral, 20 mg once daily, day 1, fasted, liquid, multiple dose",1130 ng·h/mL
Nc1ccn([C@@H]2O[C@H](CO)[C@@H](O)[C@@H]2O)c(=O)n1,,human,"subcutaneous, 20 mg, cycle 1 day 2, given alone",70.1 ng·h/mL
C[C@@H]1CCO[C@H]2Cn3cc(C(=O)NCc4ccc(F)cc4F)c(=O)c(O)c3C(=O)N12,,"human, haemodialysis patients, plasma","oral, dose not given, steady state, fixed-dose combination",78100 ng·h/mL
CN1CC[C@@H](NC(=O)Nc2ccc(C#N)cc2)C[C@@H]1c1nc2ccccc2[nH]1,,human,"oral, 100 mg, cycle 1 day 21, given alone",15400 ng·h/mL
COC[C@@H](c1ccc(C(F)(F)F)cc1)N1CCN(C2(C)CCN(C(=O)c3c(C)ncnc3C)CC2)C[C@@H]1C,,human,"oral, 10 mg once daily, steady state, population PK, together with: ritonavir",2500 ng·h/mL
CC(C)NC(=O)COc1cccc(-c2nc(Nc3ccc4[nH]ncc4c3)c3ccccc3n2)c1,,"human, male, fed, plasma","oral, 200 mg once daily, day 8, geometric mean, together with: raltegravir",13000 ng·h/mL
Cc1noc(C)c1-c1cc(C(O)(c2ccccn2)c2ccccn2)c2nc(C3CC3)[nH]c2c1,,"human patients, fasted, plasma","oral, 3 mg once daily, cycle 1 day 15, together with: enzalutamide once daily",765 ng·h/mL
CCOc1c([C@H](C)n2nc(C)c3c(N)ncnc32)cc(Cl)c(F)c1[C@@H]1CNC(=O)C1,,human Hodgkin lymphoma patients,"oral, 20 mg, day 15",17.9 µM·h
Cc1cc(C)c(CNC(=O)c2cc(Cl)c3c(c2C)O[C@@](C)([C@H]2CC[C@H](N(C)C)CC2)O3)c(=O)[nH]1,,"human, NHL patients, plasma","oral, 200 mg/day, cycle 1 day 15, once daily",14200 ng·h/mL
CCN1CCN(Cc2ccc(Nc3ncc(F)c(-c4cc(F)c5nc6n(c5c4)[C@H](C)CCC6)n3)nc2)CC1,,"human, Phase Ib patients, plasma","300 mg, multiple doses, mean, together with: fulvestrant",7770 ng·h/mL
Cc1ncnc2c1ccn2[C@@H]1C[C@H](Oc2cc(C(F)F)c(F)c3c2CNCC3)[C@@H](O)[C@H]1O,,human,"oral, 1 mg twice daily",201 ng·h/mL and 98.9 ng·h/mL
CCCCOCCOc1ccc(-c2ccc3c(c2)/C=C(/C(=O)Nc2ccc([S@@+]([O-])Cc4cncn4CCC)cc2)CCCN3CC(C)C)cc1,,"human, moderate hepatic impairment, plasma","oral, 150 mg, day 1, geometric mean",4400 ng·h/mL
Cc1cc(/C=C/C#N)cc(C)c1Nc1ccnc(Nc2ccc(C#N)cc2)n1,,"human, haemodialysis patients, plasma","oral, dose not given, steady state, fixed-dose combination",1700 ng·h/mL
C[C@H]1CNCCCN1S(=O)(=O)c1cccc2cncc(F)c12,,"human, male, plasma","ocular instillation, 1 drop per eye twice daily, day 8",0.17 ng·h/mL
N#CCNC(=O)c1ccc(-c2ccnc(Nc3ccc(N4CCOCC4=O)cc3)n2)cc1,,"healthy human volunteers, plasma","100 mg momelotinib once daily, day 7, fed, momelotinib alone",1780 ng·h/mL
